Published values pooled from the literature.
Numbered parts are unrelated; each lists some results of a single study.

Sample 1 — technique: protein-binding microarray; molecule type: double-stranded DNA, one strand shown; medium: in vitro; concentration: 940 nM top; notes: 60-bp whole probe; added: salmon DNA 0.4 mg/ml; reference: random background probes; reading: higher = stronger binding; quantity: fitted relative affinity; shared flanks, not repeated: GCCTAGCAC … GTCTTGATTCGCTTGACGCTGCTG
Target: Interferon regulatory factor 5, full length, phosphomimetic (IRF5, Homo sapiens, UniProt Q13568-2, residues 1-514, S451D/S453D/S456D/S462D)
Strand = ATTTAGTATTACCTATTTCTGTGCTAG; value = 0.536 z-score
Strand = CATACAATTTCAGATTCCAGTGTGCTA; value = 0.894 z-score
Strand = GACGGACTGGGTATCAGGACGTGCTAG; value = -0.238 z-score
Strand = TTAGGGATCGGGTATCGGTTAGTGCTA; value = 3.32 z-score
Strand = TCAATTTCAGTTTTCTTACTGTGCTAG; value = 1.68 z-score
Strand = GACGAGATCGGGACTGGAGACGTGCTA; value = 0.212 z-score
Strand = TTAGGACTGGTCTTTCGGTTAGTGCTA; value = 1.02 z-score
Strand = GACGGTTTAGACTATCGGGACGTGCTA; value = 0.35 z-score
Strand = AGGACTCGAATCCTGCAGGGGTGCTAG; value = -0.308 z-score

Sample 2 — technique: RNA Bind-n-Seq; molecule type: RNA; medium: in vitro; concentration: 200 nM; notes: whole 134-nt RNA, ends assumed; added: 150 mM KCl; reference: input library; reading: higher = stronger binding; quantity: log2 enrichment
Target: Ras GTPase-activating protein-binding protein 1, full length (G3BP1, Homo sapiens, UniProt Q13283)
Chain of UniProt Q13283 (whole entry, looked up): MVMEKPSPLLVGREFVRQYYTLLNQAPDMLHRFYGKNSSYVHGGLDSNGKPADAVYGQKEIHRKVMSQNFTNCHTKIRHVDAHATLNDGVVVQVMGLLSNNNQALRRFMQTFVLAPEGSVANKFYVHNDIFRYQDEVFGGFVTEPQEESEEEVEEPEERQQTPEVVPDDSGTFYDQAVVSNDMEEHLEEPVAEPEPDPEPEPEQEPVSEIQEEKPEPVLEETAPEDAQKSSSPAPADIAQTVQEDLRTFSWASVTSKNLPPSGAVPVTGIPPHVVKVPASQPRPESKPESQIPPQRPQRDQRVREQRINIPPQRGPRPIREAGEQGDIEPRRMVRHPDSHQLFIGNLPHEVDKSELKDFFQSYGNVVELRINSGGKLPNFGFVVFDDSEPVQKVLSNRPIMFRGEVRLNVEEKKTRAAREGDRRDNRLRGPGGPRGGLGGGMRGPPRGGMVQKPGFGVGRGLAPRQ
Shared flanks, not repeated: GGGAGUUCUACAGUCCGACGAUC … UGGAAUUCUCGGGUGUCAAGG
Strand = CUCAAGUCCUGUGCUACACAUCGUAUGUACCGAAUCGGCCCGGCCCGGCCCGGGAAAGUAUUAUGUUACGCCGUUCGGAUCUGCACUUCC; value = -0.308
Strand = CACAGACAACACGCACCCACAAAAACACAGAGGGAAGGGGUUGGGAUGGGGACAGGGUGCACAGCAGGGCGGGGUAGGACCCCAGCCCCU; value = 1.9
Strand = CCUGUGCUACACAUCGUAUGUACCGAAUCAAACCCCCCCAAAUUUUUUUAAACCCCCAAAAAAGUAUUAUGUUACGCCGUUCGGAUCUGC; value = 0.178
Strand = UCAAGUCCUGUGCUACACAUCGUAUGUACCGAAUCGGGAAGGGGAAGGGGAAGGAAAGUAUUAUGUUACGCCGUUCGGAUCUGCACUUCC; value = -0.0212
Strand = GUCCUGUGCUACACAUCGUAUGUACCGAAUCGGGGAAAGGGGAAAAAAAGGGGAGGGGAAAGUAUUAUGUUACGCCGUUCGGAUCUGCAC; value = 0.491
Strand = UGGAGAGGGAAGUCCCAAUGGUGCUAGAAUGGUGCUGCAGUGGCAGAAGACGGCUCACAAGUGAGGUCUGGAAGAACAACAGGGAAGACA; value = 0.267
Strand = UGGCCCUGGUGGCAUGCGGGGAGGAAGAGGUGGCCUCAUGGAUCGUGGUGGUCCCGGUGGAAUGUUCAGAGGUGGUCGUGGUGGAGACAG; value = 0.534
Strand = UCAUUCUAUACAGCCUUUUGUUUCAUUAGGAUCAGGCAGCUAGAGACAUGAAGAGGCUUGAAGAAAAGGACAAGGAAAGAAAAAACGUAA; value = -1.69
Strand = UCCUGUGCUACACAUCGUAUGUACCGAAUCGGGGUUUUUGGGUUUUUGGGGUUUUUGGGGAAAGUAUUAUGUUACGCCGUUCGGAUCUGC; value = 0.273

Sample 3 — technique: universal PBM; molecule type: double-stranded DNA, one strand shown; medium: in vitro; concentration: 600 nM; reading: higher = stronger binding; quantity: E-score
Target: Sal-like protein 4, full length isoform A (SALL4, Homo sapiens, UniProt Q9UJQ4, residues 1-1053)
Chain of UniProt Q9UJQ4 (whole entry, looked up): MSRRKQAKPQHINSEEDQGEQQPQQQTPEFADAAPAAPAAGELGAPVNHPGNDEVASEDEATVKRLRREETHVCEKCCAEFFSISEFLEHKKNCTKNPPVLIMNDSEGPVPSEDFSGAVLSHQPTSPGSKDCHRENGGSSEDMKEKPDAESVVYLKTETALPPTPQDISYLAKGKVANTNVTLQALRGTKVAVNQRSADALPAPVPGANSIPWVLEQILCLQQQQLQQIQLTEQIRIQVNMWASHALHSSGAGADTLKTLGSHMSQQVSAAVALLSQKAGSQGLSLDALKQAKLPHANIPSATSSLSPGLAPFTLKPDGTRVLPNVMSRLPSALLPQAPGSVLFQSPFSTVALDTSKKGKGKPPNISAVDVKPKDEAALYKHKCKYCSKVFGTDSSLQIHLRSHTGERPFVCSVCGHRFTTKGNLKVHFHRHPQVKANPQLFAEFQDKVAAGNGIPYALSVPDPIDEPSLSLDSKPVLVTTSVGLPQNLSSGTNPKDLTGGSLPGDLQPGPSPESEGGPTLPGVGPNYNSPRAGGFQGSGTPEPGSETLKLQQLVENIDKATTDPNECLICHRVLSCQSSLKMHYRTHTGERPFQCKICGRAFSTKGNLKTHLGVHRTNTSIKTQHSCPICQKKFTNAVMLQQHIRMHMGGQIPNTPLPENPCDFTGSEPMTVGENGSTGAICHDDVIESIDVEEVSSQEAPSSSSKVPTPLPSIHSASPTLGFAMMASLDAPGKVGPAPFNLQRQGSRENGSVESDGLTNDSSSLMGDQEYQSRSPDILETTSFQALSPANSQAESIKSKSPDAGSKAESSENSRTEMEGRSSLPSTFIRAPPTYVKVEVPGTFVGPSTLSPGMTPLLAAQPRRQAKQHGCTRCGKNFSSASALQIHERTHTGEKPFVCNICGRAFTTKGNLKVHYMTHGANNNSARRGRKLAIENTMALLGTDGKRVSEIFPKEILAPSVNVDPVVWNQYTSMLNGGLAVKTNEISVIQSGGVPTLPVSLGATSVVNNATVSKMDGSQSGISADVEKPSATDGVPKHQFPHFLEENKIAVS
Notes: 8-mer, flanks averaged, mean of replicates
Strand = CGTCCTGC; value = -0.229
Strand = ACGGTCTA; value = -0.038
Strand = AATCTTGG; value = -0.032
Strand = ACCGCGTC; value = -0.211
Strand = CGTAACGA; value = -0.0661
Strand = CGATCGCG; value = -0.00722
Strand = CAACGCCG; value = -0.301

Mixed results
Molecule = PhoQ, residues 284 288 289 292 302 303 SACGEM; target = PhoP, residues 12 14 15 18 19 TQAIL (Escherichia coli, UniProt P23836); test = Sort-seq, refers to: YFP reporter; system = E. coli; setting = PhoQ-PhoP variant library, added: 10 µM Mg2+; scale = reference: high Mg2+ state, higher = stronger signaling; quantity = fold induction; value = 2.74

For quick reference, copied from above (sample 3):
Strand = ACCGCGTC; value = -0.211
Strand = CGTAACGA; value = -0.0661
Strand = CGATCGCG; value = -0.00722
